Results from different studies.
Parts stem from different laboratories: compare values within a part only.

Series 1 — method: RNA Bind-n-Seq; form: RNA; matrix: in vitro; concentration: 1 µM; notes: whole 134-nt RNA, ends assumed; with: 150 mM KCl; reference: input library; reading: higher = stronger binding; quantity: log2 enrichment
Target: Ras GTPase-activating protein-binding protein 1, RRM domain (G3BP1, Homo sapiens, UniProt Q13283)
Sequence of UniProt Q13283 (whole entry, looked up): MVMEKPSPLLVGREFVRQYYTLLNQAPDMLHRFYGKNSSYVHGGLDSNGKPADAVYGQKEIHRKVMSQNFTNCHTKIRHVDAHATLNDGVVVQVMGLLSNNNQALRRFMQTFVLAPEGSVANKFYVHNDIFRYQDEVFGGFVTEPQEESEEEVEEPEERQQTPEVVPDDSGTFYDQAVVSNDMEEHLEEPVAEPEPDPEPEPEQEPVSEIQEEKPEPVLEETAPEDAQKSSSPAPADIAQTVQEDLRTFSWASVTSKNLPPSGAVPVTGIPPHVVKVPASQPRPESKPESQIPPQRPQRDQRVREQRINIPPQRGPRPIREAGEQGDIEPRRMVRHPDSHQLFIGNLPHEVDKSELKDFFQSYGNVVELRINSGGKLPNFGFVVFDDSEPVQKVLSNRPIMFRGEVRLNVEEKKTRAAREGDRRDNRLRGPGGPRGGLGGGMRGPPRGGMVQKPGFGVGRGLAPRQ
Shared flanks, not repeated: GGGAGUUCUACAGUCCGACGAUC … UGGAAUUCUCGGGUGUCAAGG
CUCAAGUCCUGUGCUACACAUCGUAUGUACCGAAUCGGGUUGGGUUGGGUUGGGAAAGUAUUAUGUUACGCCGUUCGGAUCUGCACUUCC: 0.863
CACAGACAACACGCACCCACACAGACACGGAGGGAAGGGGUUGGGAUGGGGACAGGGUGCACAGCAGGGCGGGGUAGGACCCCAGCCCCU: -0.0077
UUGUGGAAAGGAGGAGAACCCCUGCUGAAAUUCGAGAGGAGUUUGAGCGGCUGCAGAGAGAGAGAGAAGAGAGGAGAUUGCAGCAGCGAA: 0.072
GUCCUGUGCUACACAUCGUAUGUACCGAAUCGGGAAAAAAAGGGAAAAAAAGGGUGGGAAAGUAUUAUGUUACGCCGUUCGGAUCUGCAC: 0.488
CAAGUCCUGUGCUACACAUCGUAUGUACCGAAUCGGGCCCGGCCCGGGGCCCGGGGAAAGUAUUAUGUUACGCCGUUCGGAUCUGCACUU: -0.62
AAGUCCUGUGCUACACAUCGUAUGUACCGAAUCGGUGGUUUUUUUGGUUUUUUUGGAAAGUAUUAUGUUACGCCGUUCGGAUCUGCACUU: -0.337
AAGUCCUGUGCUACACAUCGUAUGUACCGAAUCGGGGUUUGGGUUUGGGGUUUGGGGAAAGUAUUAUGUUACGCCGUUCGGAUCUGCACU: 0.473
GUCCUGUGCUACACAUCGUAUGUACCGAAUCGGGGAAAGGGGUUUGGGGUUUUUGGGGAAAGUAUUAUGUUACGCCGUUCGGAUCUGCAC: 1.54
AGUCCUGUGCUACACAUCGUAUGUACCGAAUCAAAUUUUUUUAAACCCAAACCCAAAAAAGUAUUAUGUUACGCCGUUCGGAUCUGCACU: -0.949
GCAGGAAGUAAAAACAAAUGGAAAAGCUUCGGAUAGUGGCAGGGGUGGGGGUUGCUAAGGAAAGGGUGGGAUGGGAGUGGGUAAAGAGUU: 1.65

Series 2 — method: protein-binding microarray; form: double-stranded DNA, one strand shown; matrix: in vitro; concentration: 2540 nM top; notes: 60-bp whole probe; with: salmon DNA 0.4 mg/ml; reference: random background probes; reading: higher = stronger binding; quantity: fitted relative affinity; shared flanks, not repeated: GCCTAGCAC … GTCTTGATTCGCTTGACGCTGCTG
Target: Interferon regulatory factor 3, full length, phosphomimetic (IRF3, Homo sapiens, UniProt Q14653, residues 1-427, S386D/S396D/S398D/S402D/T404D/S405D)
Residues (chain): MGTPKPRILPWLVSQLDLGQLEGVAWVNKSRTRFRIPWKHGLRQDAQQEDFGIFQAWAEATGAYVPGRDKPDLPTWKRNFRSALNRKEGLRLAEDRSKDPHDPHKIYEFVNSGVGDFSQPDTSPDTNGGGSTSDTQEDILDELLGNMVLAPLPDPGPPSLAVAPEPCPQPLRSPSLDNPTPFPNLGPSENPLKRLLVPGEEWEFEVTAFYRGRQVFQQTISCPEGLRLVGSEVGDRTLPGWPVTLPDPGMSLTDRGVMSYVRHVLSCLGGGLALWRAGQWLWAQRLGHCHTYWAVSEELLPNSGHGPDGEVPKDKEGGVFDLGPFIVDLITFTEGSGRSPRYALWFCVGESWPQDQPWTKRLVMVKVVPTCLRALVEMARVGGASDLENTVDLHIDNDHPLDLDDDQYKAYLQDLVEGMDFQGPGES
TTTTTTTTATTTATAAATTAGTGCTAG: 1.93 z-score
GTCTGTTTGGGTCTTGTCTGGTGCTAG: 0.245 z-score
TTAGTTATCAGTCTCGATTAGTGCTAG: 1.94 z-score
TTAGGTTTCCTAGTGCTTTAGTGCTAG: 4.94 z-score
TTTGGTTTGTACACCGCCTTGTGCTAG: -0.098 z-score
TTAGATTTCGGGACCGGATTAGTGCTA: 1.49 z-score
CCCTGTGTTACTTTCTACTTGTGCTAG: 1.64 z-score
TTAGGTATCGGATTGGGTTAGTGCTAG: 2.68 z-score
TTAGGGTTCGGGTATCGGTTAGTGCTA: 0.769 z-score
TTAGGTTTCCTACTGCTATAGTGCTAG: 5.26 z-score
TTAGGTCTCGGAATCGGTTAGTGCTAG: 1.01 z-score
ATAGGTTTCCTACTGCTTTAGTGCTAG: 4.91 z-score
GAAGATATCAGTATCGAGACGTGCTAG: 1.13 z-score
TTAGCTCTCAGTCTCGATTAGTGCTAG: 0.289 z-score
TTAGGTTTCGAGTTTCGGTTAGTGCTA: 5.43 z-score
TCATAATTTACTTTGGTACTGTGCTAG: 0.269 z-score
TTATGTATCGGTCTCGGTTAGTGCTAG: 4.75 z-score
TCAATAATTTTTTTCTAACTGTGCTAG: 0.121 z-score
CAGGAAATCAACTTTTTTTAAGTGCTA: -0.0836 z-score
TTAGGTATCGACCCTGGGTTAGTGCTA: -0.206 z-score

Series 3 — method: protein binding microarray; form: double-stranded DNA, one strand shown; matrix: in vitro; concentration: not given; reference: not given; reading: higher = stronger binding; quantity: E-score
Target: Histone acetyltransferase KAT6A, winged helix 2, GST fusion (KAT6A, Homo sapiens, UniProt Q92794, residues 85-181)
Notes: 8-mer, flanks averaged, mean of 2 arrays, mostly near background
Target sequence (chain): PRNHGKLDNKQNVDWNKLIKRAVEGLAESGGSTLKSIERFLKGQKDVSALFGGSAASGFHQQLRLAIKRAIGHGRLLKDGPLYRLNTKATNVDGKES
AATAAGAG: 0.149
GGCTGAAC: 0.139
ACGTTCAT: -0.223
CCCTTTGA: -0.146
CTGTAATA: 0.0677
AACGCACG: 0.135
GCCCAGCA: 0.133
GCCACGGA: -0.0114
GCTGTCCC: 0.191
AGCGCCAT: -0.0568
ACGGACAT: -0.0964
GGCATGAA: 0.0942
CAGATCCA: 0.129
CGGACAGC: 0.0531
CATTTTCC: -0.0162
CCGGAGAA: 0.0329
AGGTTCGC: -0.0424
ATTTTCTA: -0.0243
ATTATGTG: -0.0713
CTGTGTCC: 0.0989
AGAAGGTG: 0.0269
ATCCTGAA: 0.0307
AAGTGCAT: 0.0175
TCGGAAAA: 0.131
ATCGAAAC: 0.116

Series 4 — method: universal PBM; form: double-stranded DNA, one strand shown; matrix: in vitro; concentration: 600 nM; reading: higher = stronger binding; quantity: E-score
Target: Sal-like protein 4, full length isoform A (SALL4, Homo sapiens, UniProt Q9UJQ4, residues 1-1053)
Sequence of UniProt Q9UJQ4 (whole entry, looked up): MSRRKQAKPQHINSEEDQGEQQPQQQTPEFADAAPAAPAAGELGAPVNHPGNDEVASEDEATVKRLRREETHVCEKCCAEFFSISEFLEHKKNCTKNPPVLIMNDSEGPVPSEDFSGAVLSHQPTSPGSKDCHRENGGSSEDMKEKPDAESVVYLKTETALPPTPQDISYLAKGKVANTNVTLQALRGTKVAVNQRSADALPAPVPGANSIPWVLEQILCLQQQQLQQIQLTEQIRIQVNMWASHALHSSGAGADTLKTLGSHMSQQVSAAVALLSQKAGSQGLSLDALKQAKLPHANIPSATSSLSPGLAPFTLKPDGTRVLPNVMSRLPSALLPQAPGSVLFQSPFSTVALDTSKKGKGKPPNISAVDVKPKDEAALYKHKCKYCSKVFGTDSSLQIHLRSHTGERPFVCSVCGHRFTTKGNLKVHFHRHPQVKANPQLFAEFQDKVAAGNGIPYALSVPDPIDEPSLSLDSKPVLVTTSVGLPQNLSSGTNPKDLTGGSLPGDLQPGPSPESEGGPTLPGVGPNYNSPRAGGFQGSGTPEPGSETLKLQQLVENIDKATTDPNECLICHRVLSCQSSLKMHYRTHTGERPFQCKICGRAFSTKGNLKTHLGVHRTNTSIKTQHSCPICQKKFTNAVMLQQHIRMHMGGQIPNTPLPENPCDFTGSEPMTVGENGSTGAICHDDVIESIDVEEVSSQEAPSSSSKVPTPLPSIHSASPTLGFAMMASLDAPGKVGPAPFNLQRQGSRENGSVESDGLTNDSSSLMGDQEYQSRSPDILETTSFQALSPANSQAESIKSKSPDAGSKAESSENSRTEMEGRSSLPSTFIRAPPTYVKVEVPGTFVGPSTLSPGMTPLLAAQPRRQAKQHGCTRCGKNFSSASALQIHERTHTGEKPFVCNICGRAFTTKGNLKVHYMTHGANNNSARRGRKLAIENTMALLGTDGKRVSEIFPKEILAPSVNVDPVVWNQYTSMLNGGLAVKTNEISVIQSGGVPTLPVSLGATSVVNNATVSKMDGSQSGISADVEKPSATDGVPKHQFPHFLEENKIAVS
Notes: 8-mer, flanks averaged, mean of replicates
ACAGCGCT: -0.0482
GATAACGA: 0.222
GGACGCTA: -0.16
CCTTAAGA: 0.139
ATATCGGA: 0.268
AGGCACTA: -0.121
ATTGGTAA: 0.172
AATTAATG: 0.336
GAGCAAGA: -0.0222
AAGCGAGT: -0.00173
ATGACCTA: 0.145
AGGACATC: -0.128
CCCAGAAA: -0.052
CAACCCCA: -0.115
GATGCGCA: -0.0537
CCCGATAA: 0.00226
ACTACAAC: 0.0954
GGGACCCA: -0.302
GAAACAAA: 0.238
ATGCACAA: 0.165
GGGGTCAC: -0.323
ATTAAGAA: 0.238

Repeated from above (series 4):
GGACGCTA: -0.16
CCTTAAGA: 0.139
ATATCGGA: 0.268
AGGCACTA: -0.121
ATTGGTAA: 0.172
AATTAATG: 0.336
GAGCAAGA: -0.0222
AAGCGAGT: -0.00173
ATGACCTA: 0.145
AGGACATC: -0.128
CCCAGAAA: -0.052
CAACCCCA: -0.115
GATGCGCA: -0.0537
